Measurements from different studies.
Every numbered part comes from another study and shows a few of its results, in no order. “And” joins repeats or separate records; there may be more than shown.
Sequence of UniProt P09619 (whole entry, looked up): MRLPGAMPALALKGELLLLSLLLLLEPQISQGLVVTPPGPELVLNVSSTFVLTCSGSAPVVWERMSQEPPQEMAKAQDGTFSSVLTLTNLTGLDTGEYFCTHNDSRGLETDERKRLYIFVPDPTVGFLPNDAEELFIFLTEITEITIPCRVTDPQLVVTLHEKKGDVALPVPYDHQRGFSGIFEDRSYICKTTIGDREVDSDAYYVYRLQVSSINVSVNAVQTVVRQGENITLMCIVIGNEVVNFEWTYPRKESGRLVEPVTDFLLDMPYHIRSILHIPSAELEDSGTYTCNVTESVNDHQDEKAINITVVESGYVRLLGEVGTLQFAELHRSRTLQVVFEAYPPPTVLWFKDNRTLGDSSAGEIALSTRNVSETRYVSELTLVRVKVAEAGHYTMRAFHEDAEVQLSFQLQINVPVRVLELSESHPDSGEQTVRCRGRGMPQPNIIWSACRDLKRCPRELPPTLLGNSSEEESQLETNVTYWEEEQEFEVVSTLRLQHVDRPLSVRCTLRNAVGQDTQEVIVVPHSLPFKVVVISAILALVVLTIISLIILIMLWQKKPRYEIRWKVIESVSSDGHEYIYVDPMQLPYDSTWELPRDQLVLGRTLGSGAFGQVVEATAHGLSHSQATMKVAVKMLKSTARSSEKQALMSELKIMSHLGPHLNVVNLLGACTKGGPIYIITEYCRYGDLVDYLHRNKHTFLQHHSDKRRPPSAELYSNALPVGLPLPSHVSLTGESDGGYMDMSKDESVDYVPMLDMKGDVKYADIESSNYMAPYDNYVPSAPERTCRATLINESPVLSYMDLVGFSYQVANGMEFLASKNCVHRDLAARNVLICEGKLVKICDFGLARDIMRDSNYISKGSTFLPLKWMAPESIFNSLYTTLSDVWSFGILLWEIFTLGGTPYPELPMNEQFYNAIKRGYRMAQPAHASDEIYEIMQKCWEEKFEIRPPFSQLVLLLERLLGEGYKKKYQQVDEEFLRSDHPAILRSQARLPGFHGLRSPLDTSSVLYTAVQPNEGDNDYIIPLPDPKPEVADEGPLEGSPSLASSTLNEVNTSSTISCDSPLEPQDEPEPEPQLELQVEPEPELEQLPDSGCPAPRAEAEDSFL
Sequence of UniProt O14965 (whole entry, looked up): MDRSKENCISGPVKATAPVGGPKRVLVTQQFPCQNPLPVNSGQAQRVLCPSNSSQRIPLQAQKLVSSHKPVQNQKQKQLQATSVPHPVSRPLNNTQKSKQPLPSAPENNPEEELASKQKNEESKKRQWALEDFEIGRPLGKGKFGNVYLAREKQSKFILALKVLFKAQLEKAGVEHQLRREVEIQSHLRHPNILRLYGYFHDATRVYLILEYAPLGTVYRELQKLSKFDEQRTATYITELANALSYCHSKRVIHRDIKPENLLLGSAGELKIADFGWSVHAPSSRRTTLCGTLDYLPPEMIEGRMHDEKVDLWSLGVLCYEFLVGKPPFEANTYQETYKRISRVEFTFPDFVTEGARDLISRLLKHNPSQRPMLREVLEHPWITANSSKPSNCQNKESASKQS
Sequence of UniProt Q99986 (whole entry, looked up): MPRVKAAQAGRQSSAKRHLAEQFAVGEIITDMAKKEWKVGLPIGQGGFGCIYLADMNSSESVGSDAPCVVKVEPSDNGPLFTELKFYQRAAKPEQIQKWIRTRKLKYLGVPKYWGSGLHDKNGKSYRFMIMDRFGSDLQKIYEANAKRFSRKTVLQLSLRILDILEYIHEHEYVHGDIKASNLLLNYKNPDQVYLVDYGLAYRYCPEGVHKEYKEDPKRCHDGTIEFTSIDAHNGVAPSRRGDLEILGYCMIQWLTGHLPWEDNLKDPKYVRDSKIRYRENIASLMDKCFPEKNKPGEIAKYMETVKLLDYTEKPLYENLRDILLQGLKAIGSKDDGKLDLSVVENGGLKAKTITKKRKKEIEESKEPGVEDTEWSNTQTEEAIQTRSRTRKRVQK
Sequence of UniProt Q8TDC3 (whole entry, looked up): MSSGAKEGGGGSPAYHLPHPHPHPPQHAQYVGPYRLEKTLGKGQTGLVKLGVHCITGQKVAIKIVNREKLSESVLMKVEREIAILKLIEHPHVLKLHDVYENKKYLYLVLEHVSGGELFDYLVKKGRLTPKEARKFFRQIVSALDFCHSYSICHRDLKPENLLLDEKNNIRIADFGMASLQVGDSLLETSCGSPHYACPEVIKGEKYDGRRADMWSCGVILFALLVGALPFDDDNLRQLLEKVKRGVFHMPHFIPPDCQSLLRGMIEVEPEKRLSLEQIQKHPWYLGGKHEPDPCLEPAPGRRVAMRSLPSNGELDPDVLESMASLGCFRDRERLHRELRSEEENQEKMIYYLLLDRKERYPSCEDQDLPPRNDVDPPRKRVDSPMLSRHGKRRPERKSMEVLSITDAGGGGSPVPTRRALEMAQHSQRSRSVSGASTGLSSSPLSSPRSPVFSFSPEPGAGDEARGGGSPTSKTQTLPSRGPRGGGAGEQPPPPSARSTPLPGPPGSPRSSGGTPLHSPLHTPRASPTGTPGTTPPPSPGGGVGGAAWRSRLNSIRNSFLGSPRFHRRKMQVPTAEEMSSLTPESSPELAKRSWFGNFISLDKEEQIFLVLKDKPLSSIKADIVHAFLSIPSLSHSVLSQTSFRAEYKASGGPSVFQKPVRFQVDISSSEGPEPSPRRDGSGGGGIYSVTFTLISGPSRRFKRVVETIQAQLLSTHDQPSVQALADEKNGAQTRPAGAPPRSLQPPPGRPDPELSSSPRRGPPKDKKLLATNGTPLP
Sequence of UniProt O43283 (whole entry, looked up): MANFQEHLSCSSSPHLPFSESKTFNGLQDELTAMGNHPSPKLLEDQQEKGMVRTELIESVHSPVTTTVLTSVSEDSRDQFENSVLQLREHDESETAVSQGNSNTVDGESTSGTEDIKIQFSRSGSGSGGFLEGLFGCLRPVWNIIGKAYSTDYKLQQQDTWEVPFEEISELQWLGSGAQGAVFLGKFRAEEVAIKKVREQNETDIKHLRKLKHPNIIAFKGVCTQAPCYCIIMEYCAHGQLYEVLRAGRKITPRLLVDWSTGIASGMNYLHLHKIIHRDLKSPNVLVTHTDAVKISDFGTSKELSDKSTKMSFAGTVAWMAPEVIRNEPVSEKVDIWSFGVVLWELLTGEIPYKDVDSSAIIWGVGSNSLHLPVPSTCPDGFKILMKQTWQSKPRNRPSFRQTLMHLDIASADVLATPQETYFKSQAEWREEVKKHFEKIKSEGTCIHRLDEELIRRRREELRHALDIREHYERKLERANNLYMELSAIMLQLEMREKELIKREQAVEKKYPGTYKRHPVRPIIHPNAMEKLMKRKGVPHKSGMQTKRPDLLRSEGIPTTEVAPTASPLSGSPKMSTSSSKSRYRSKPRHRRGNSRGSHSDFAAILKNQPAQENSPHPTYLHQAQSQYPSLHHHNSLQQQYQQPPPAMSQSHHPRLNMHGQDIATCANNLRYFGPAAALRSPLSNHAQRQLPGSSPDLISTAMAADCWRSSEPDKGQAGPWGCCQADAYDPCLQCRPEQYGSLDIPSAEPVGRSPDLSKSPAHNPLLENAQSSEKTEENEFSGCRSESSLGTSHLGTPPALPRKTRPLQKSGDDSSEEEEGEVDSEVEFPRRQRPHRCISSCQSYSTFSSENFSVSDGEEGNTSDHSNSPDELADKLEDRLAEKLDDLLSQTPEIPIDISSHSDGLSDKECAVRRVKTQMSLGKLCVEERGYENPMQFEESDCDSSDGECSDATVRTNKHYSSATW
Sequence of UniProt Q6XUX3 (whole entry, looked up): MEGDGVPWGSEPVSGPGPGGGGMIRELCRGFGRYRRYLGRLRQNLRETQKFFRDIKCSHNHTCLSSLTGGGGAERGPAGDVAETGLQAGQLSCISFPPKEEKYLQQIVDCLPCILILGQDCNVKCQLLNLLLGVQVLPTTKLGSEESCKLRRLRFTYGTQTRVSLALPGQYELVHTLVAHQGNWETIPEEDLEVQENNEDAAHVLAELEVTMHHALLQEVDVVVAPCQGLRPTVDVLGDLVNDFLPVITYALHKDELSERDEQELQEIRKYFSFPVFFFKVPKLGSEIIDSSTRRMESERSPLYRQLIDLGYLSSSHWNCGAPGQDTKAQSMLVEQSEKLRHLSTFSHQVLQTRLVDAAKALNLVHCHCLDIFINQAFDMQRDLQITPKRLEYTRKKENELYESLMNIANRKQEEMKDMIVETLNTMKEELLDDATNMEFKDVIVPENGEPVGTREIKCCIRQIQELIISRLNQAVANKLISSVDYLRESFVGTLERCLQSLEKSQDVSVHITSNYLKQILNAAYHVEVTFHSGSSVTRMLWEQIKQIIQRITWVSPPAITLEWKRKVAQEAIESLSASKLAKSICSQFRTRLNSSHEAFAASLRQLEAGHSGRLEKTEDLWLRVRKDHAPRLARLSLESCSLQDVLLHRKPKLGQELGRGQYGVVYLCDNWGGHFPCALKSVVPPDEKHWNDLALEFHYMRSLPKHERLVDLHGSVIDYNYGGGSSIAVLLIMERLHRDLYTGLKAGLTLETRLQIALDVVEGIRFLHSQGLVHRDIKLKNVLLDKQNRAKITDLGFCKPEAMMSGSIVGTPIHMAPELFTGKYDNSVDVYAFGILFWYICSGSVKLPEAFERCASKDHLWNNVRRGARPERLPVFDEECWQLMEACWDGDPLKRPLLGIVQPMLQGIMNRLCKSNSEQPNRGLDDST
Sequence of UniProt Q52WX2 (whole entry, looked up): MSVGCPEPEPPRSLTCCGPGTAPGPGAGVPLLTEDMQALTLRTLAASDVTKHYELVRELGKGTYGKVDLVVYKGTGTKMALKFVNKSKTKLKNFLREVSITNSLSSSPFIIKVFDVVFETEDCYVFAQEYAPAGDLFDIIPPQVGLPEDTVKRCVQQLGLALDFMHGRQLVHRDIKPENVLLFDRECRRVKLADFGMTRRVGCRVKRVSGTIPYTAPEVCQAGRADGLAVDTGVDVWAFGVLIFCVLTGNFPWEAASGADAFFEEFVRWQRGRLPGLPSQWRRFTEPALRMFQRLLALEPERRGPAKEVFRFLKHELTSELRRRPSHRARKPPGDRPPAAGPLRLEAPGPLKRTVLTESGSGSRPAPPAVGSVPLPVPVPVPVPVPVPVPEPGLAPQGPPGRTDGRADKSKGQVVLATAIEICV

Set 1
Compound: CCS(=O)(=O)c1cc2cc(C[C@](O)(CC(C)(C)c3ccc(F)cc3C(N)=O)C(F)(F)F)[nH]c2cn1
Read-out: cell-free assay
Method: competition with immobilised ligand
Tested at: 1 µM
| target | remaining binding [%] |
| --- | --- |
| ALK tyrosine kinase receptor (ALK, Homo sapiens, UniProt Q9UM73) | 100 |
| Aurora kinase A (AURKA, Homo sapiens, UniProt O14965) | 88 |
| Mitogen-activated protein kinase kinase kinase 13 (MAP3K13, Homo sapiens, UniProt O43283) | 90 |
| Serine/threonine-protein kinase BRSK1 (BRSK1, Homo sapiens, UniProt Q8TDC3) | 99 |
| Platelet-derived growth factor receptor beta (PDGFRB, Homo sapiens, UniProt P09619) | 100 |
| Serine/threonine-protein kinase SBK1 (SBK1, Homo sapiens, UniProt Q52WX2) | 87 |

Set 2
Cell line: mouse MPNST tumor cells
Method: high-content nuclear imaging
Refers to: cell number
Tested at: 10 µM
Time: 12 h
Notes: mean of 2 replicates
Relative to: plate mean
Reading: higher = more cells
| Structure (SMILES) | nuclei count |
| --- | --- |
| CC(C)Oc1cccc(CC(=O)N2CCC[C@](CC[N+]34CCC(c5ccccc5)(CC3)CC4)(c3ccc(Cl)c(Cl)c3)C2)c1 | 1.76 z-score |
| CN(Cc1cc(Br)cc(Br)c1N)C1CCCCC1 | 0.449 z-score |
| O=C(O)c1cc(O)c2ccc(Cl)cc2n1 | -0.0748 z-score |
| CN1CCN(c2ccc(/C=C(\C#N)c3ccccc3Br)cc2)CC1 | 1.57 z-score |
| CC(C)NCC(O)COc1ccc(COCCOC(C)C)cc1 (centres unmarked) | 0.596 z-score |
| Cc1ccccc1C(OCCN(C)C)c1ccccc1 (centres unmarked) | 5.13 z-score |
| NCCCCCCNS(=O)(=O)c1cccc2c(Cl)cccc12 | 1.43 z-score |
| CCOc1cc(C(=O)N2CCC(N3CCN(C)CC3)CC2)ccc1Nc1ncc2c(n1)N(S(C)(=O)=O)c1ccccc1C(=O)N2C | -0.0767 z-score |

Set 3
Compound: CO[C@H]1C[C@@H]2CC[C@@H](C)[C@@](O)(O2)C(=O)C(=O)N2CCCC[C@H]2C(=O)O[C@H]([C@H](C)C[C@@H]2CC[C@@H](O)[C@H](OC)C2)CC(=O)[C@H](C)/C=C(\C)[C@@H](O)[C@@H](OC)C(=O)[C@H](C)C[C@H](C)/C=C/C=C/C=C/1C
Read-out: enzyme activity
Mode: inhibitor
Tested at: 0.5 µM
Relative to: control
| target | remaining activity [%] |
| --- | --- |
| Activin receptor type-1 (ACVR1, Homo sapiens, UniProt Q04771) | 94.6 |
| Platelet-derived growth factor receptor beta (PDGFRB, Homo sapiens, UniProt P09619) | 108 |
| Serine/threonine-protein kinase VRK1 (VRK1, Homo sapiens, UniProt Q99986) | 108 |
| Serine/threonine-protein kinase PLK1 (PLK1, Homo sapiens, UniProt P53350) | 97.8 |
| Serine/threonine-protein kinase ULK1 (ULK1, Homo sapiens, UniProt O75385) | 87.9 |
| Dual serine/threonine and tyrosine protein kinase (DSTYK, Homo sapiens, UniProt Q6XUX3) | 107 |
| Serine/threonine-protein kinase TAO1 (TAOK1, Homo sapiens, UniProt Q7L7X3) | 102 |

Set 4
SMILES: C=C(F)C(=O)N1CCN(c2nc(OC[C@@H]3CCCN3C)nc3c2CCN(c2cccc4cccc(Cl)c24)C3)C[C@@H]1CC#N
Target: GTPase HRas (HRAS, Homo sapiens, UniProt P01112)
Read-out: binding
Mode: competitor
Method: NanoBRET
Cell line: HEK293
| conditions | normalized BRET |
| --- | --- |
| 3.05 nM | 101% and 108% |
| 27.4 nM | 93.3% and 97.9% |
| 611 pM | 92.2% |
| 2.44 nM | 89.8% |
| 1.02 nM | 99.2% and 95.8% |
